Published values of several laboratories.
Every numbered part comes from another study and shows a few of its results, in no order. Positions count from the first letter of the parent shown.

Series 1
Target: CCNE2, cyclin fold, Cln2 fusion (human)
Technique: yeast growth competition, sequencing
Sample: yeast
Notes: weak parent motif
Relative to: not given
Direction: higher = stronger binding
Endpoint: normalised enrichment score
Starting sequence: MASTL docking peptide (human); PMIAKNLMCELDE; partner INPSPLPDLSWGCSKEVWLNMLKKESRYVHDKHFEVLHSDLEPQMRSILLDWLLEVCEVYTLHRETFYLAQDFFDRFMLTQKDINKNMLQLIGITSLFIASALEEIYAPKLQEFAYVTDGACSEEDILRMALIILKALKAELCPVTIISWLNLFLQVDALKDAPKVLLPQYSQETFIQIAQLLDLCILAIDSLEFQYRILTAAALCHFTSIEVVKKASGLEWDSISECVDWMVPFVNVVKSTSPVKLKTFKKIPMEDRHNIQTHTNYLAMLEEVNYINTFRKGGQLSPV
PMIAKNLMCERDE [L11R]: -0.0505
PMLAKNLMCELDE [I3L]: -0.0481
PMIAKNLMCELME [D12M]: 0.388
PMMAKNLMCELDE [I3M]: -0.287
PQIAKNLMCELDE [M2Q]: 0.0504
PMIAKNWMCELDE [L7W]: -0.116
PMCAKNLMCELDE [I3C]: -0.0344

Series 2
Target: Interferon regulatory factor 5, full length, phosphomimetic (IRF5, Homo sapiens, UniProt Q13568-2, residues 1-514, K96S/S451D/S453D/S456D/S462D)
Technique: protein-binding microarray
Molecule type: double-stranded DNA, one strand shown
Sample: in vitro
Concentration: 250 nM
Notes: 60-bp whole probe
Together with: salmon DNA 0.4 mg/ml
Relative to: random background probes
Direction: higher = stronger binding
Endpoint: log fluorescence
Constant ends, left off below: GCCTAGCAC … GTCTTGATTCGCTTGACGCTGCTG
GACGATATCGGGACTGGAGTCGTGCTA: 1.01 z-score
TCATCTCAGAATCTCTCACTGTGCTAG: 0.676 z-score
GACGAACTGTGTTTCGAGACGTGCTAG: 2.25 z-score
TTAGGTCTCGTTTTCCTTTAGTGCTAG: 0.771 z-score
ACCACTCTTGCTTTTTAGATGTGCTAG: 0.415 z-score
GACGATCTAAGTCTCGAGACGTGCTAG: -0.035 z-score

Series 3
Target: Max-binding protein MNT, bHLH-zipper, MAX partner unstated (MNT, Homo sapiens, UniProt Q99583, residues 220-300)
Technique: protein-binding microarray
Molecule type: double-stranded DNA, one strand shown
Sample: in vitro
Concentration: not given
Notes: k-mer, scored over probes, only values ≥0.25
Direction: higher = stronger binding
Endpoint: E-score
Residues (chain): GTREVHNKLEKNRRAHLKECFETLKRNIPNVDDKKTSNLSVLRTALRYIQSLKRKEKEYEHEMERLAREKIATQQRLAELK
CTACATGC: 0.293
CACGAGAA: 0.333
CAGCCACG: 0.278
GGCATGGA: 0.305

Single results of other studies
PhoQ, residues 284 288 289 292 302 303 TASMAF  fold induction (PhoP, residues 12 14 15 18 19 AQALL (Escherichia coli, UniProt P23836); Sort-seq, item: YFP reporter; E. coli; PhoQ-PhoP variant library, together with: 10 µM Mg2+; relative to: high Mg2+ state, higher = stronger signaling): 9.85
